# Literature values as cited in several papers.
# Lines come from different studies, so protocols differ. Numbers after ± are the reported error.
# HDAC1: Histone deacetylase 1 (HDAC1, Homo sapiens, UniProt Q13547)
# UniProt Q13547, sequence (whole entry, looked up): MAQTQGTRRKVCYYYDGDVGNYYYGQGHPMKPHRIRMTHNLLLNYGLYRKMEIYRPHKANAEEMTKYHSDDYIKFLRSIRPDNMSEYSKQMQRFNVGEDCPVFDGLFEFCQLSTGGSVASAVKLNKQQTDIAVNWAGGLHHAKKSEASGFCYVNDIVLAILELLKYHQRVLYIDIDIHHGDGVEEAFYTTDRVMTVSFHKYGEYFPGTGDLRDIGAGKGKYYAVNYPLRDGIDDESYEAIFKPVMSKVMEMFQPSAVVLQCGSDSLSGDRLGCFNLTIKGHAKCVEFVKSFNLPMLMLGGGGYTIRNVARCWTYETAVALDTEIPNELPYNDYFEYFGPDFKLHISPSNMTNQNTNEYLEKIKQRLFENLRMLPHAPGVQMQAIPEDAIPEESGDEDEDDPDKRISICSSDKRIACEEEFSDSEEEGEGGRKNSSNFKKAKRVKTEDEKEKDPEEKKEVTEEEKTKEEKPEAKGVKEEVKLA
# ACHE: Acetylcholinesterase (ACHE, Homo sapiens, UniProt P22303)
# UniProt P22303, sequence (whole entry, looked up): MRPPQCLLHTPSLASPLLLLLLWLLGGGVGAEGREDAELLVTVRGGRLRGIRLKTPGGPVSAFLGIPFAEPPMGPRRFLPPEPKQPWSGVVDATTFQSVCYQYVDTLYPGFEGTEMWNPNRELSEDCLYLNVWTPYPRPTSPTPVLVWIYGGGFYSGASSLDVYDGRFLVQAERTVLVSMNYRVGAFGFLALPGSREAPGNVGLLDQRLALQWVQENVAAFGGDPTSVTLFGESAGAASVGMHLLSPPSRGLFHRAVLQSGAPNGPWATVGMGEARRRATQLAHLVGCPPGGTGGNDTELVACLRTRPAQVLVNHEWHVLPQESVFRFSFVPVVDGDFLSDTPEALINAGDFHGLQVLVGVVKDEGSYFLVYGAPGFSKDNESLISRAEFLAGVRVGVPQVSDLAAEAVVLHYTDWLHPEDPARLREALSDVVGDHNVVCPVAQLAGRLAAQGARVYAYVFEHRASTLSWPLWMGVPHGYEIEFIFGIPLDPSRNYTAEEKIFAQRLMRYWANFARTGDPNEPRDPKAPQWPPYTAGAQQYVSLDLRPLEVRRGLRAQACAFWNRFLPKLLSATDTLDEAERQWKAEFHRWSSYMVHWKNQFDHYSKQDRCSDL
# BCHE: Cholinesterase (BCHE, Equus caballus, UniProt P81908)
# UniProt P81908, sequence (whole entry, looked up): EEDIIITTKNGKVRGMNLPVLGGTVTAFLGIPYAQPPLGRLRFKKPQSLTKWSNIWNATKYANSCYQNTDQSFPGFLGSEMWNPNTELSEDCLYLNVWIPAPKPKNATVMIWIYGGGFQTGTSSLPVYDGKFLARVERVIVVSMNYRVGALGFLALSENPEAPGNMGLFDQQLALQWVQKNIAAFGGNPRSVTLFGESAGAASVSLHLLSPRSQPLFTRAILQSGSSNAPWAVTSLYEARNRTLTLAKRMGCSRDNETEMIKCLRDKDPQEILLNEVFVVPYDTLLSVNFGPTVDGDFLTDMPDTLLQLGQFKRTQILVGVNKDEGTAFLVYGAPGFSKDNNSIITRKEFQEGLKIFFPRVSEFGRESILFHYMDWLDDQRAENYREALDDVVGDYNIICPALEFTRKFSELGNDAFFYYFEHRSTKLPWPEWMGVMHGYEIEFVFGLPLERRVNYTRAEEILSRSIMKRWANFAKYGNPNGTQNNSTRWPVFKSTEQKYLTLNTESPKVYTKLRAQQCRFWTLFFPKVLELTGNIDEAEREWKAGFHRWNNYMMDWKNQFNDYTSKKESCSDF
# UniProt P27338, sequence (whole entry, looked up): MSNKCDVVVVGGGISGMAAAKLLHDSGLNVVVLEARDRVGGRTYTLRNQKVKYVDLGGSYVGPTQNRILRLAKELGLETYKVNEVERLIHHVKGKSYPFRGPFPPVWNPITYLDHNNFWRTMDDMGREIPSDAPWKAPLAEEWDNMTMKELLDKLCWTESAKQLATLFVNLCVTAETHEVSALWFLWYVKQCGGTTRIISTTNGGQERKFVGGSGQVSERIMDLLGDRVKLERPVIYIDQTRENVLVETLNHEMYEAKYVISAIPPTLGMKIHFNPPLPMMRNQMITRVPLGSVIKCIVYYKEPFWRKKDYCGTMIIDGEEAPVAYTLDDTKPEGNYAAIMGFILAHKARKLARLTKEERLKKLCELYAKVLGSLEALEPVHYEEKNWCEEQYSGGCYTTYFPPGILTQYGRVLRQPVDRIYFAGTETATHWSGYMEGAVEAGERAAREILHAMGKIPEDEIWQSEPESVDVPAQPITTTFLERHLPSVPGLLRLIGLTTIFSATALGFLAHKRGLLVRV
# UniProt C7C422, sequence (whole entry, looked up): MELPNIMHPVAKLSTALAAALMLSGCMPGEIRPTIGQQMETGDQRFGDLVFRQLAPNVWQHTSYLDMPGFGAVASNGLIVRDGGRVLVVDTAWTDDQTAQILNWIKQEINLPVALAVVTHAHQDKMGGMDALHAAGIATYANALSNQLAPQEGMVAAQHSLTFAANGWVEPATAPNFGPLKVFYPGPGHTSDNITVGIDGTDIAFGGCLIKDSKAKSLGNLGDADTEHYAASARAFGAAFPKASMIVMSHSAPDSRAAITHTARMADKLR
# UniProt P21397, sequence (whole entry, looked up): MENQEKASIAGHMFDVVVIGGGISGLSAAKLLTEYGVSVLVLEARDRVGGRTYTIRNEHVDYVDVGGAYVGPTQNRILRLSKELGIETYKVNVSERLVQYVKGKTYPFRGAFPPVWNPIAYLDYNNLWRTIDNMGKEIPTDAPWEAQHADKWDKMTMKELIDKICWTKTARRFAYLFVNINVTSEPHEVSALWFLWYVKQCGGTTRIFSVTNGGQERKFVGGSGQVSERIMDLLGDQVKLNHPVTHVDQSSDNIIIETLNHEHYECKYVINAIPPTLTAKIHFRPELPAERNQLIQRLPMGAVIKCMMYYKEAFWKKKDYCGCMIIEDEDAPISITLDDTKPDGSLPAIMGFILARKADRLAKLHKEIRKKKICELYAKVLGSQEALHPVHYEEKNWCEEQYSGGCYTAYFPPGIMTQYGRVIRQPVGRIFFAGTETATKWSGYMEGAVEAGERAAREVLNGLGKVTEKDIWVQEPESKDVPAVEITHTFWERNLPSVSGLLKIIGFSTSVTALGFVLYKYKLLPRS
# UniProt P32247, sequence (whole entry, looked up): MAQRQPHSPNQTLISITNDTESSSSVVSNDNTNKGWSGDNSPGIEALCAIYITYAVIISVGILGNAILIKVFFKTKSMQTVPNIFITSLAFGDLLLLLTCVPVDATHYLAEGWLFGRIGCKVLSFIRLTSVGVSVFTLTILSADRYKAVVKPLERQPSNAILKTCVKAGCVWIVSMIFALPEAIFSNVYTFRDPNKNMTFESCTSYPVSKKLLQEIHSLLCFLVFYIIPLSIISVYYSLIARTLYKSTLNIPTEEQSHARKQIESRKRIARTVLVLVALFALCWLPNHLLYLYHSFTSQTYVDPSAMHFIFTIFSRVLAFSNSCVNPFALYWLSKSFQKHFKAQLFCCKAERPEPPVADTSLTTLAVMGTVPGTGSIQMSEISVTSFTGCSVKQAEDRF
# UniProt P15907, sequence (whole entry, looked up): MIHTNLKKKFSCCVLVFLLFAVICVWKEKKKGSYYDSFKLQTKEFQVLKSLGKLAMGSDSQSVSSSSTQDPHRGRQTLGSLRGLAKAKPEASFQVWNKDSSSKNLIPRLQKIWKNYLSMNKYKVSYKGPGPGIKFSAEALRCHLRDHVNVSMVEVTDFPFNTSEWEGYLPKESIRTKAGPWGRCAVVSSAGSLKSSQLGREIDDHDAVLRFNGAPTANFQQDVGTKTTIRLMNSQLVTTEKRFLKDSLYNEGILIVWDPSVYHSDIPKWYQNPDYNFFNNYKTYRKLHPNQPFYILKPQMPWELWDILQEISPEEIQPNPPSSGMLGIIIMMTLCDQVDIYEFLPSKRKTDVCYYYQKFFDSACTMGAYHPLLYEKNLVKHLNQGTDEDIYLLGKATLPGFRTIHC
Compound,target,test,test system,conditions,scale,IC50
CC(=O)N(O)CCCP(=O)(O)O,Plasmodium falciparum DXP reductoisomerase,"enzyme activity, inhibitor",,,,0.018 µM
O=C(CS)NCCCCCCn1ccc2cc(F)c(Cl)cc21,HDAC1,inhibitor,,,,29.3 µM
CC(C)C[C@@H](CN[C@@H](CC(C)C)C(N)=O)NC(=O)[C@H](Cc1cnc[nH]1)NC(=O)CNC(=O)[C@@H](NC(=O)[C@H](C)NC(=O)[C@H](Cc1c[nH]c2ccccc12)NC(=O)[C@H](CCC(N)=O)NC(=O)[C@H](CC(N)=O)NC(=O)CNC(=O)[C@H](CC(C)C)NC(=O)[C@H](CCCN=C(N)N)NC(=O)[C@H](CCC(N)=O)NC(=O)[C@@H]1CCC(=O)N1)C(C)C,"Gastrin-releasing peptide receptor (Rattus norvegicus, UniProt P52500)",binding,,literature species comparison,,0.434 ± 0.065 µM
COc1nc(-c2ccnc(NC(=O)C3CC3)c2)sc1C(=O)NCCCNc1c2c(nc3ccccc13)CCCC2,ACHE,inhibitor,,,,0.0065 µM
CP(=O)(O)CN,"Urease subunit alpha (Sporosarcina pasteurii, UniProt P41020)","enzyme activity, inhibitor",,,,1100 ± 10.5 µM
C[C@@H](NC(=O)[C@@H](N)Cc1ccc(O)cc1)C(=O)NCC(=O)N[C@@H](Cc1ccccc1)C(=O)N1CCN(C(=O)[C@H](Cc2ccccc2)NC(=O)CNC(=O)[C@@H](C)NC(=O)[C@@H](N)Cc2ccc(O)cc2)CC1,"δ-opioid receptor, mouse",muscle contraction,mouse vas deferens,,,0.0093 ± 0.0004 µM
CC1(C)CC(=O)C2=C(C1)N=c1sc(=Cc3ccc(OCCNCCc4c[nH]c5ccccc45)cc3)c(=O)n1C2c1c[nH]c2ccccc12 (stereo not drawn),"MAOB (Homo sapiens, UniProt P27338)",inhibitor,,,,0.33 µM
CN1CCC2(CC1)c1ccccc1N(Cc1ccc(C(=O)NO)cc1)C2c1cccc(Cl)c1 (stereo not drawn),"Histone deacetylase 8 (Schistosoma mansoni, UniProt A5H660)",inhibitor,,together with: Fluor-de-Lys substrate 50 µM,,4.36 ± 2.34 µM
CC(CCC(=O)O)C1CCC2C3CCC4CC(OC(=O)C(N)CC(=O)O)CCC4(C)C3CCC12C (stereo not drawn),"ST6GAL1 (Homo sapiens, UniProt P15907)","enzyme activity, inhibitor",,,,15.8 ± 0.1 µM
CC(C)(C)c1ccc(C(=O)Nc2cc(Cl)c(Br)cc2C(=O)O)cc1,"Hexokinase-4 (GCK, Homo sapiens, UniProt P35557)","enzyme activity, inhibitor",,,,48.3 µM
CN(CCCCCNc1c2c(nc3ccccc13)CCCC2)C1CCC(c2ccc(Cl)c(Cl)c2)c2ccccc21 (stereo not drawn),"MAOA (Homo sapiens, UniProt P21397)",inhibitor,,,,0.311 µM
COc1cc(/C=C/c2nnc(-c3ccc(C(F)(F)F)cc3)o2)ccc1O,BCHE,,,,,0.186 ± 0.005 µM
CC(C)[C@@H]1NC(=O)[C@H](CCCCN)NC(=O)[C@@H](Cc2c[nH]c3ccccc23)NC(=O)[C@H](Cc2ccc(O)cc2)NC(=O)[C@@H](NC(=O)[C@H](N)Cc2ccc3ccccc3c2)CSSC[C@@H](C(=O)N[C@@H](Cc2ccc3ccccc3c2)C(N)=O)NC1=O,"BRS3 (Homo sapiens, UniProt P32247)",,Balb/3T3 expressing BRS3,,,0.338 µM
CNC12CC3CC(CC(C1)c1ccccc13)O2,NMDA receptor,inhibitor,,,,6 µM
C#CCNc1ccc(/C=C2\SC(=O)N(CN(C)CCC(Oc3ccc(C(F)(F)F)cc3)c3ccccc3)C2=O)cc1 (stereo not drawn),BCHE,inhibitor,,,,0.203 µM
O=C(CS)NCCCCCCn1ccc2cc(Cl)c(Cl)cc21,HDAC1,inhibitor,,,,> 30 µM
C=CC(=O)N1CCC[C@@H](n2nc(-c3cn(C)c4ccccc34)c3c(N)ncnc32)C1,"EGFR (Homo sapiens, UniProt P00533, L858R)",,,,,0.0038 ± 0.0028 µM
CC1(C)C=Cc2c(ccc(C(=O)/C=C/c3ccc(O)cc3)c2O)O1,ACHE,,,,,20.4 µM
CN(C)c1ccc(/C=C/C(=O)c2ccc(OC(=O)N3CCCC3)cc2O)cc1,monoamine oxidase B,"enzyme activity, inhibitor",,,,0.29 µM
CN1CCC2(CC1)c1ccccc1N(Cc1ccc(C(=O)NO)cc1)C2c1ccc(Cl)cc1 (stereo not drawn),"HDAC8 (Homo sapiens, UniProt Q9BY41)",inhibitor,,together with: Fluor-de-Lys substrate 50 µM,,3.45 ± 2.14 µM
Cc1nn(CCCCCCCN2C(=O)c3ccccc3C2=O)c(=O)n1CC(F)(F)F,ACHE,"enzyme activity, inhibitor",,,,8.07 µM
CC(/C=N/NC(=N)N)=N\NC(=N)N,human AdoMetDC F233A,inhibitor,,,reference: wild type,increased
O=C(CS)NCCCCCn1ccc2cc(Cl)c(Cl)cc21,HDAC1,inhibitor,,,,7.49 µM
O=C(O)[C@@H]1CS[C@H]2CS[C@H](CS)N21,"blaNDM-1 (Klebsiella pneumoniae, UniProt C7C422)","imipenem hydrolysis, inhibitor",,in cells,,23 µM

# Repeated from above:
Compound,target,test,test system,conditions,scale,IC50
CC1(C)CC(=O)C2=C(C1)N=c1sc(=Cc3ccc(OCCNCCc4c[nH]c5ccccc45)cc3)c(=O)n1C2c1c[nH]c2ccccc12 (stereo not drawn),"MAOB (Homo sapiens, UniProt P27338)",inhibitor,,,,0.33 µM
Cc1nn(CCCCCCCN2C(=O)c3ccccc3C2=O)c(=O)n1CC(F)(F)F,ACHE,"enzyme activity, inhibitor",,,,8.07 µM
